Assay results from different studies.
Compare with care: the assays were run in different laboratories. “And” joins repeats or separate records; there may be more than shown.
Cell line: EKVX

SMILES	test	conditions	how to read	measurement	value
CCCCCCCCCCCCCCCCCCOc1ccc(CC(=O)OCC[N+]2(C)CCCC2)cc1	SRB	10 µM		growth inhibition	< 0%
Cc1cc(=O)[nH]c(=O)n1Cc1cn(-c2c3ccccc3nc3ccccc23)nn1	NCI60 single-dose screen	10 µM		growth percentage	103%
C#C[C@@]1(O)[C@@H](CO)O[C@@H](n2cc(F)c3c(N)ncnc32)[C@@H]1O	SRB	NCI-60 screen		TGI	11.3 µM
Cc1cc(C)n(C(=S)[S][Au][PH](CCCCCC[PH]([Au][S]C(=S)n2nc(C)cc2C)(c2ccccc2)c2ccccc2)(c2ccccc2)c2ccccc2)n1	cell growth, NCI-60 screen	non-small cell lung cancer		log10 TGI	> -4
CCOc1ccc(-c2nc3cc(-c4nc5cc(N6CCN(C)CC6)ccc5[nH]4)ccc3[nH]2)cc1OCC	SRB	10 µM, 48 h		growth percent	50.2%
Cn1cncc1C1=CN(c2ncnc3[nH]cnc23)CCS1		lung cancer		GI50	27.5 µM
CCCCN1CCN(c2ccc3nc(-c4ccc5nc(-c6cc(OC)ccc6OC)[nH]c5c4)[nH]c3c2)CC1	SRB	10 µM, 48 h		growth percent	97%
Cc1cc(C)n(-c2nc(-c3ccc(Cl)cc3)c3c(NC(=O)c4ccccc4)nnc-3[nH]2)n1	SRB	10 µM, NCI60 single-dose screen	reference: untreated	cell growth	93.9%
CCCCCCCCCCCCCCCCCCOCC(COP(=O)([O-])OCC[N+](C)(C)C)OC (stereo not shown)	SRB	10 µM		growth inhibition	< 0%
CCOC(=O)CSc1nc(-c2ccc(Cl)cc2)c2c(NC(=O)c3ccccc3)nnc-2[nH]1	SRB	10 µM, NCI60 single-dose screen	reference: untreated	cell growth	100%
C#C[C@@]1(O)[C@@H](CO)O[C@@H](n2cc(Cl)c3c(N)ncnc32)[C@@H]1O	SRB	NCI-60 screen		TGI	2.46 µM and 2.41 µM
O=C1NC(c2ccccc2)(c2ccccc2)C(=O)N1Cc1cn(-c2cc3ccccc3oc2=O)nn1	NCI60 single-dose screen	10 µM		growth percentage	78.9%
CCCCCCCCCCCCCCCCCCOc1ccc(CC(=O)OCC[N+]2(C)CCOCC2)cc1	SRB	10 µM		growth inhibition	< 0%
O=C1NC(c2ccccc2)(c2ccccc2)C(=O)N1Cc1cn(-c2c3ccccc3nc3ccccc23)nn1	NCI60 single-dose screen	10 µM		growth percentage	80.4%
COc1ccc(OC)c(-c2nc3ccc(-c4nc5ccc(N6CCN(C)CC6)cc5[nH]4)cc3[nH]2)c1	SRB	10 µM, 48 h		growth percent	115%
O=C(Nc1nnc2n3c(=S)[nH][nH]c3nc(-c3ccc(Cl)cc3)c1-2)c1ccccc1	SRB	10 µM, NCI60 single-dose screen	reference: untreated	cell growth	98.4%
CCCN1CCN(c2ccc3[nH]c(-c4ccc5[nH]c(-c6ccc(OCC)c(OCC)c6)nc5c4)nc3c2)CC1	SRB	10 µM, 48 h		growth percent	-3.15%
Cc1cc(-c2ccccc2)n(-c2nc(-c3ccc(Cl)cc3)c3c(NC(=O)c4ccccc4)nnc-3[nH]2)n1	SRB	10 µM, NCI60 single-dose screen	reference: untreated	cell growth	95.3%
CCCCN1CCN(c2ccc3[nH]c(-c4ccc5[nH]c(-c6ccc(OCC)c(OCC)c6)nc5c4)nc3c2)CC1	SRB	10 µM, 48 h		growth percent	24.6%
Cc1cc(=O)[nH]n1-c1nc(-c2ccc(Cl)cc2)c2c(NC(=O)c3ccccc3)nnc-2[nH]1	SRB	10 µM, NCI60 single-dose screen	reference: untreated	cell growth	98.5%
CCCCN1CCN(c2ccc3[nH]c(-c4ccc5[nH]c(-c6ccc(OCC)cc6)nc5c4)nc3c2)CC1	SRB	10 µM, 48 h		growth percent	92.9%
Cc1n[nH]c2nc(-c3ccc(Cl)cc3)c3c(NC(=O)c4ccccc4)nnc-3n12	SRB	10 µM, NCI60 single-dose screen	reference: untreated	cell growth	102%

Excerpt of the above:
SMILES	test	conditions	how to read	measurement	value
CCCN1CCN(c2ccc3[nH]c(-c4ccc5[nH]c(-c6ccc(OCC)c(OCC)c6)nc5c4)nc3c2)CC1	SRB	10 µM, 48 h		growth percent	-3.15%
CCCCN1CCN(c2ccc3nc(-c4ccc5nc(-c6cc(OC)ccc6OC)[nH]c5c4)[nH]c3c2)CC1	SRB	10 µM, 48 h		growth percent	97%
C#C[C@@]1(O)[C@@H](CO)O[C@@H](n2cc(F)c3c(N)ncnc32)[C@@H]1O	SRB	NCI-60 screen		TGI	11.3 µM
C#C[C@@]1(O)[C@@H](CO)O[C@@H](n2cc(Cl)c3c(N)ncnc32)[C@@H]1O	SRB	NCI-60 screen		TGI	2.46 µM and 2.41 µM
